Measured values gathered from unrelated publications.
Compare with care: the assays were run in different laboratories. Numbers after ± are the reported error.

Structure (SMILES)	cell line	test	conditions	IC50
O=C(NCC1(c2nc(-c3ccccc3)cs2)CCOCC1)c1cccc(-c2noc(C(F)(F)F)n2)c1	OCI-Ly10	cell growth or viability, CCK-8	7 days	> 20000 nM
COC(=O)c1cc(NC2=NC(=O)C(=Cc3ccc(N(C)C)cc3)S2)ccc1OC(C)=O	HCT-116 CDK4 knockout	cell growth, SRB	–	430 nM
C=CC(=O)N1CCCC(n2c(=O)c3ncccc3n(Cc3ccc(Oc4ccccc4)cc3)c2=O)C1 (stereo not shown)	U2932	cell growth or viability, MTT	72 h	10000 nM
CNS(=O)(=O)Nc1nccc(Cc2c(C)c3ccc(Oc4ncccc4F)cc3oc2=O)c1F	NCI-H1373	cell viability	7 days	> 1000 nM
C=CC(=O)NCCCCCCCCOCc1cn(CCCCCCCCNC(=O)C=C)nn1	L929	viability, alamarBlue	3 days	> 50000 nM
CCOc1cncc(-c2ccc(NC(=O)C3(c4ccnc(NS(=O)(=O)C5CC5)n4)CCOCC3)nc2)n1	A498	cell proliferation, CellTiter-Glo	72 h, renal cancer	545 nM
C=CC(=O)N1C[C@H](C)N(c2nc(OC[C@@]34CCCN3C[C@H](F)C4)nc3c(F)c(-c4ccc(F)c5sc(N)c(C#N)c45)c(C(F)(F)F)cc23)C[C@H]1C	Ba/F3 expressing KRAS G12C	cell viability, CellTiter-Glo	3 days	0.2 nM
C[C@H](c1ccccc1)N1C(=O)C2=Nc3cccc(Cl)c3CN2C1=S	CEM/ADR5000 (P-gp overexpressing, multidrug resistant)	cell viability, resazurin	72 h	146 ± 15 nM
CC(C)c1ccc(N(C)c2ccc3c(c2)OCC[C@H]3CNc2cnccc2C(=O)O)cc1	SK-MEL-1	cell growth or viability, ATP luminescence	7 days	9.24 nM
O=C1CS/C(=N\N=C2/C(=O)N(CCn3ncc4c(=O)[nH]cnc43)c3ccc(Cl)cc32)N1	A498	cell growth or viability, SRB	72 h	42.6 µg/mL
O=C1C(Cl)=C(Cl)C(=O)c2c(O)ccc(O)c21	HuCC-A1	cell growth or viability, MTT	–	9460 nM
CCC(=[NH+][Pt-2]1([Cl])([O]C(=O)CC(C)C)([O]C(=O)CC(C)C)[NH]CCC[NH]1)N(C)CCNc1c2ccccc2[nH+]c2ccccc12.O=[N+]([O-])O.O=[N+]([O-])O	NCI-H460, high hMATE1	cell proliferation, MTS	72 h	5.27 ± 1.2 nM
C=C(C)C(=O)NCCCCCCOCc1cn(CCCCCCNC(=O)C(=C)C)n[n+]1C	L929	viability, alamarBlue	3 days	> 50000 nM
CC1(C)C[C@@H](Nc2cccc(-c3sc(C(=O)O)c(OCC(=O)O)c3Cl)c2)CCN1S(=O)(=O)Cc1cccc(NC(=O)CN2CCC(c3ccc4c(c3)oc(=O)n4C3CCC(=O)NC3=O)CC2)c1 (stereo partly shown)	B16-F10 cells	IFNγ-induced STAT1 phosphorylation, HTRF, refers to: pSTAT1 Tyr701	24 h, with: IFNγ	206 ± 22 nM
C[n+]1nn(CCCCCCN2C(=O)C=CC2=O)cc1COCCCCCCN1C(=O)C=CC1=O	L929	cell growth or viability	72 h	> 50000 nM
C[C@@H](c1ccc2ccccc2c1)N1C(=O)C2=Nc3ccccc3CN2C1=S	CEM/ADR5000 (P-gp overexpressing, multidrug resistant)	cell viability, resazurin	72 h	242 ± 24 nM
